# Assay results from different studies.
# Lines come from different studies, so protocols differ. Several values in a cell are separate wells, animals, samples, runs or records. Numbers after ± are the reported error.
# gag-pol integrase: Gag-Pol polyprotein, integrase (gag-pol, Human immunodeficiency virus type 1 group M subtype B, UniProt P04585)
# nusB with NusE: Transcription antitermination protein NusB, with NusE (nusB, Bacillus subtilis, UniProt P54520)
# HTR2C: 5-hydroxytryptamine receptor 2C (HTR2C, Homo sapiens, UniProt P28335)
# TGFBR2: TGF-beta receptor type-2 (TGFBR2, Homo sapiens, UniProt P37173)
# HTR2A: 5-hydroxytryptamine receptor 2A (HTR2A, Homo sapiens, UniProt P28223)
# HTR7: 5-hydroxytryptamine receptor 7 (HTR7, Homo sapiens, UniProt P34969)
Structure (SMILES),target,assay,system,conditions,inhibition
Cc1nnc(C(=O)NC(C)(C)c2nc(C(=O)NCc3ccc(F)cc3)c(O)c(=O)n2C)o1,gag-pol integrase,"strand transfer, inhibitor",HIV-1,10 µM,82.1%
CN1[C@@H]2CC[C@H]1C[C@@H](OC(=O)C(CO)c1ccccc1)C2 (stereo partly shown),"Muscarinic acetylcholine receptor M2 (Rattus norvegicus, UniProt P10980)",radioligand binding,rat,10 µM,100%
N=C(N)c1ccc(OC/C=C\COc2ccc(C(=N)N)cc2)cc1,nusB with NusE,"NusE binding, inhibitor, competitive ELISA",,25 µM,0%
Cc1ccc(C(=O)Nc2ccc3ccccc3c2)o1,"Sodium channel protein type 4 subunit alpha (SCN4A, Homo sapiens, UniProt P35499)","ion current, inhibitor, whole-cell patch clamp",,10 µM,10.4% and 5.7% and 6.7% and 9.8% and 2.5%
Cc1cc(-c2ccnc3[nH]cc(F)c23)cc(F)c1[C@@]1(O)[C@H](C)CN(C2CCS(=O)(=O)CC2)C[C@@H]1C,ROCK1 and ROCK2,"ATP probe binding, KiNativ, measured: Lys2 site",HEK293T cell lysate,10 µM,56%
O=C(O)c1cn(C2CC2)c2cc(N3CCNCC3)c(F)cc2c1=O,"DNA gyrase subunit A (gyrA, Escherichia coli K-12, UniProt P0AES4)","enzyme activity, inhibitor, DNA supercoiling",,0.1 µM,35%
Cn1cncc1C1=CN(c2ncnc3[nH]cnc23)CCS1,"Serine/threonine-protein kinase D3 (PRKD3, Homo sapiens, UniProt O94806)","kinase activity, HotSpot",,2 µM,88.9%
O=C(NO)c1cc(F)cc(OS(=O)(=O)Oc2ccccc2)c1,"Histone deacetylase 4 (HDAC4, Homo sapiens, UniProt P56524)",,,10 µM,19%
CCS(=O)(=O)c1nc(S(=O)(=O)c2ccccc2Cl)c(N2CCN(C)C(=O)[C@H]2C)s1,HTR2C,,,10 µM,2.91%
O=C(NO)c1ccc(CN2CCCCc3ccccc32)c(F)c1,HTR2C,"radioligand binding, radioligand displacement",,"10 µM, mean of replicates",7.99%
CN1CCN(c2cc(-c3ccncc3)c(-c3ccc4ccccc4c3)nn2)CC1,"Pituitary adenylate cyclase-activating polypeptide type I receptor (ADCYAP1R1, Homo sapiens, UniProt P41586)","antagonist, FLIPR",,10 µM,-13.8%
Fc1ccc(-c2ncn(C3=CCCCC3)c2-c2ccncc2)cc1,TGFBR2,inhibitor,,1 µM,30%
Cc1ncc([N+](=O)[O-])n1C(=NO)c1ccccc1C(F)(F)F,kinase (MBP2 substrate),,,10 µM,10.2%
COc1cc(C(=O)c2c[nH]c3cc(-c4ccc(C(F)(F)F)cc4)ccc23)cc(OC)c1OC,"Tubulin alpha-1B chain/TUBB2B (Bos taurus, UniProt P81947+Q6B856)","tubulin polymerization, turbidimetry",,concentration not given,inactive
COc1ccc(-c2ccc3c(-c4ccccc4)cn(C)c3n2)cc1,gag-pol integrase,"strand transfer, inhibitor",HIV-1,10 µM,39.3%
Cc1cc(-c2ccnc3[nH]cc(F)c23)cc(F)c1[C@@]1(O)[C@H](C)CN(C(=O)CN)C[C@@H]1C,ROCK1 and ROCK2,"ATP probe binding, KiNativ, measured: Lys2 site",HEK293T cell lysate,1 µM,20.3%
CCN1CCN(Cc2ccc(NC(=O)c3ccc(C)c(Oc4ccnc5[nH]ccc45)c3)cc2C(F)(F)F)CC1,"Serine/threonine-protein kinase Nek8 (NEK8, Homo sapiens, UniProt Q86SG6)",,A-375,5 µM,-22.4%
CCNC(=O)Nc1ccc(OC/C=C\COc2ccc(CCC(=O)O)cc2)cc1,nusB with NusE,"NusE binding, inhibitor, competitive ELISA",,25 µM,21%
C[C@]12CC[C@H]3[C@@H](CNC4=CC(=O)CC[C@@]43C)[C@@H]1CC[C@@H]2C(=O)O,"3 beta-hydroxysteroid dehydrogenase/Delta 5-->4-isomerase (Mycobacterium tuberculosis, UniProt P9WQP7)",inhibitor,,up to 200 µM,no inhibition
Nc1ncnc2c1c(COc1cccc(Cl)c1)nn2C1CCOCC1,TGFBR2,inhibitor,,1 µM,0%
c1cc2cc(C3=NCCN3)ccc2cc1C1=NCCN1,"Breakpoint cluster region protein, GAP domain (Homo sapiens, UniProt P11274)","GAP activity, inhibitor",,"10 µM, selectivity counter screen",-2.16%
COc1ccc(-n2nc(C)c3conc3c2=O)cc1,"Metabotropic glutamate receptor 2 (GRM2, Homo sapiens, UniProt Q14416)","cAMP accumulation, antagonist",,"10 µM, added: glutamate 1 µM, forskolin",-55%
COc1ccc(F)cc1C(=O)NCc1ccc(-c2nn([C@@H](C)C(F)(F)F)c(N)c2C(N)=O)cc1,"Tyrosine-protein kinase HCK (HCK, Homo sapiens, UniProt P08631)","target engagement, competitive chemoproteomics",human PBMCs,10 µM,33.7%
CCNC(=O)Nc1ccc(OC/C=C\COc2ccc(C[C@H](NC(=O)OC(C)(C)C)C(=O)O)cc2)cc1,nusB with NusE,"NusE binding, inhibitor, competitive ELISA",,25 µM,35%
COc1cccc(OC[C@@H]2CN(CC(=O)N3CCc4ccccc43)CCO2)c1,HTR2A,radioligand binding,,"concentration not given, added: [3H]ketanserin",52.1%
NC/C(=C\F)COc1cccc(Cn2c(=S)[nH]c(=O)c3[nH]cnc32)c1,"Protein-lysine 6-oxidase (Homo sapiens, UniProt P28300)","enzyme activity, inhibitor",,10 µM,24.4%
COc1cc2c(cc1OC)C(=O)C(CC1CCN(Cc3ccccc3)CC1)C2 (stereo not shown),"N-acyl-aromatic-L-amino acid amidohydrolase (carboxylate-forming) (Acy3, Mus musculus, UniProt Q91XE4)",inhibitor,,concentration not given,no inhibition
NC(=O)c1ccc(-c2nc(-c3ccc4c(c3)OCO4)c(-c3ccccn3)[nH]2)cc1,TGFBR2,inhibitor,,1 µM,2%
Cn1cc(-c2ccc(F)cc2)c2ccc(Cl)nc21,gag-pol integrase,"strand transfer, inhibitor",HIV-1,10 µM,38.3%
COc1cc(C(=O)NS(=O)(=O)c2ccccc2C)ccc1Cc1cn(C)c2ccc(NC(=O)OC3CCCC3)cc12,"LRRC8A/LRRC8C (Homo sapiens, UniProt Q8IWT6+Q8TDW0, E6A)","VRAC current, inhibitor, whole-cell patch clamp",HCT116 LRRC8-/- cells,30 µM,95.1%
CC(C)NC(=O)COc1cccc(-c2nc(Nc3ccc4[nH]ncc4c3)c3ccccc3n2)c1,"UDP-glucuronosyltransferase 1A1 (UGT1A1, Homo sapiens, UniProt P22309)",inhibitor,recombinant microsomes,0.1-100 µM,inhibited
c1cncc(OC[C@@H]2CN(CCN3CCc4ccccc43)CCO2)c1,HTR2C,radioligand binding,,"concentration not given, added: [3H]mesulergine",40.8%
CN1CC(Oc2cnc(C#N)cc2-c2ccn3nc(NC(=O)C4CC4)cc3c2)C1,"Serine/threonine-protein kinase MARK1 (MARK1, Homo sapiens, UniProt Q9P0L2)","inhibitor, KinaseProfiler panel",,1 µM,20%
O=C(CCCN1CCC(O)(c2ccc(Cl)cc2)CC1)c1ccc(F)cc1,sigma-2 receptor (guinea pig),radioligand binding,,concentration not given,99.6%
Clc1cccc(OC[C@H]2CN(CCN3CCc4ccccc43)CCO2)c1,HTR2C,radioligand binding,,"concentration not given, added: [3H]mesulergine",13.6%
Cn1cc(-c2cc(C(F)(F)F)cc(C(F)(F)F)c2)c2ccc(Cl)nc21,gag-pol integrase,"strand transfer, inhibitor",HIV-1,10 µM,48.3%
COC(=O)c1ccc(OC/C=C\COc2ccc(C(=O)OC)cc2)cc1,nusB with NusE,"NusE binding, inhibitor, competitive ELISA",,25 µM,3%
Cc1nn(-c2nc3c(F)cc(F)cc3s2)c(O)c1C(c1cccc(C(F)(F)F)c1)c1c(C)nn(-c2nc3c(F)cc(F)cc3s2)c1O,"Cyclic GMP-AMP synthase, catalytic domain; with DNA (CGAS, Homo sapiens, UniProt Q8N884)","cGAS phase separation, inhibitor",,12.5 µM,70.1%
CC[C@@H]1[C@H](F)C(=O)N[C@@H]1COc1nccc2cc(C(N)=O)c(OC)cc12,"Calcium/calmodulin-dependent protein kinase type II subunit beta (CAMK2B, Homo sapiens, UniProt Q13554)","ATP-site probe binding, ActivX profiling",THP-1 cell lysate,"0.04 mM, Lys1 site",12.8%
Cc1ccc(OC[C@H]2CN(CCN3CCc4ccccc43)CCO2)cn1,HTR7,radioligand binding,,"concentration not given, added: [3H]LSD",48.2%
Fc1ccc(-c2ncn(-c3ccccc3)c2-c2ccncc2)cc1,TGFBR2,inhibitor,,1 µM,40%
O=C(CN1CCO[C@H](COc2ccccc2)C1)N1CCc2ccccc21,HTR2A,radioligand binding,,"concentration not given, added: [3H]ketanserin",-11.3%
CN1CCN(CCCOc2ccc(=O)n(-c3ccc(Cl)c(Cl)c3)n2)CC1,NMDA receptor,radioligand binding,,1.0 µM,38.8 ± 4.93%
COc1cc2c(cc1OC)C(=O)C(CC1CCN(Cc3ccccc3)CC1)C2 (stereo not shown),HTR7,radioligand binding,,"concentration not given, added: [3H]LSD",35.9%
CCNCc1cnn(-c2ccc(-n3ccc(Cl)c(Cl)c3=O)cc2)c1C(F)(F)F,"Short transient receptor potential channel 7 (Homo sapiens, UniProt Q9HCX4)","ion current, whole-cell patch clamp",,"10 µM, added: carbachol",no inhibition
COc1ccc2c(c1)C(=O)N(CCN1CCN(c3ccccc3OC)CC1)C2,HTR7,radioligand binding,,"concentration not given, added: [3H]LSD",5.3%
COc1ccc(-c2cn(C)c3nc(Cl)ccc23)cc1,gag-pol integrase,"strand transfer, inhibitor",HIV-1,10 µM,56%
COc1cccc(OC[C@H]2CN(CCN3CCc4ccccc43)CCO2)c1,HTR2A,radioligand binding,,"concentration not given, added: [3H]ketanserin",69.1%
CN(C(=O)n1cnc(-c2ccc[n+]([O-])c2)c1)C1CCCCC1,HTR2C,receptor binding,,"10 µM, subtype 5HT2C",6.81%
